Measurements pooled from the literature.
Parts stem from different laboratories: compare values within a part only.

Sample 1 — method: RNA Bind-n-Seq; molecule type: RNA; medium: in vitro; tested at: 365 nM; baseline: no-protein control; reading: higher = stronger binding
Target: RNA binding protein fox-1 homolog 2, RRM domain, GST-SBP tag (RBFOX2, Homo sapiens, UniProt O43251-10, residues 100-194)
Setting: natural RNA segment, single round, ends assumed
Constant ends, left off below: GGGAGUUCUACAGUCCGACGAUC … UGGAAUUCUCGGGUGCCAA
Construct (chain): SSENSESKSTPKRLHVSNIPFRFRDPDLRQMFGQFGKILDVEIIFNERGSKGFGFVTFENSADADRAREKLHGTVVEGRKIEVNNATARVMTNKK
Oligonucleotide	RBNS enrichment (R)
AAAGUAAUAUGUGCCAAUGCUAUUUGUGAAAUGUUUGGUCUUUCUAAACGACUAAAGGAUUUGUUGGGUUUUUGCUUAAGUUUUGAACCAAAUCCUAGAGCCAGCUGAUA	1.11
CCUUUUUAAAGUUUAAUUUUAUAGCUGGCUCCACAUCAAAGUGAGGGCCUCAUAUGUUAGAUCACCUUGGGUGGCAAACACCCCAGUUCCCACGCAGUUGAGUGUCAUCA	0.698
UGGGGAGGGGUGUUUGAUUUCAUAAUGCCAAAACUUAACCUAUUGAAUGAAUUACAGUUUUUAUUACGGAAUCUCGCCGCUACCCCUGUUCCCCUCCUGUGUCCUUUUUC	0.503
CGGAUUAAUUUGCAUCUGAAAUAGGAAACAAGUGAAAGCAUAUGGGUUAGAUGUUGCCAUGUGUUUUAGAUGGUUUCUUGCAAGCAUGCUUGUGAAAAUGUGUUCUCGGA	0.862
ACCUCUUGUGUUGAAUGGAGACCUGGGUUGAGAUGUGUCUGCUCUUGUAGGAAGAUCUUUUGUAUCAGGAACAUGUACACUAGGCCCUGUUCCCGUCCACAAGCUGAGCC	0.575
AUCCUUGUCCACCCCUCCCCUGGCUCCCAUGACCAUGACUGAGGGACCAAUGGGCCCAAGAUAGGUGCCCCAGAGCUGUUAAUGACUUCAGCUGCCUCACUUCCUGCAAG	0.763
CCACAGUUUCUUGACUGGAGGCCAUCAACCCUCUUGGUUGAGGCCUUGUUCUGAGCCCUGACAUGUGCUUGGGCACUGGUGGGCCUGGGCUUCUGAGGUGGCCUCCUGCC	0.349
CUGCAGCUUCUUUUUCACAUGUAGUGUCUCCUUCAAGUUACAUCGUGUGUAUUAUUUAAUGUCACUAUUGGUUAGUGGCCAUUUUUCAGAACUGAAGAUGGAAUGGCCUG	0.284
UCAGUGCAUUUUAUUACUUGCUGAAACAUUCAGGCUUACAUUUCUUAUUAGUUUAGUAUUUUAAAAGAUUUAAUUUUCUGAAUGAGGCAUUUGAAUUGUACCAGCAAUGG	1.58
CCCCUUCCCGGAAUUUAAACAAUAAUUAAUAGAAAUGAAUUUAUCUGAAUAUAGGAAGCAUAUACUUAAUUGUAACUUCUUAUGUUUAAAGGAAAAUUCUCAGUGUGAUA	0.466
ACCUGUGUGCCUGUGUUUUCCUGAACAGCUGCUUUCUGUCAGGCAGACUCCUCUGACCUGGAUGCGGUCACAUCCACCUUUAAGAUUGUCAGUGCAUACUCCUUCCUGAC	1.83
CACCAUCUAGCGGCCGCUCGAGGGAAGCACCCGCCGGUUGGCCGAAGUCCACGAAGCCGCCCUCUGCUAGGGAAAACCCCUGGUUCUCCAUGCCACACCUCUCUCCAGGU	0.528

Sample 2 — method: protein binding microarray; molecule type: double-stranded DNA, one strand shown; medium: in vitro; tested at: not given; baseline: not given; reading: higher = stronger binding
Target: Histone acetyltransferase KAT6A, winged helix 1, GST fusion (KAT6A, Homo sapiens, UniProt Q92794, residues 1-85)
Setting: 8-mer, flanks averaged, mean of 2 arrays, mostly near background
Residues (chain): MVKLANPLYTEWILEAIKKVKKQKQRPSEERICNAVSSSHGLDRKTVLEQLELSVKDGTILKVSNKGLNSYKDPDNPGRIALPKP
Oligonucleotide	E-score
ACTTAATC	-0.139
TAATAATA	-0.0585
GACAGGTA	-0.14
CCGTTCTA	0.177
GACCACTA	-0.26
ACAGGTGG	-0.189
CTTCGCAA	-0.141
AAGCGGGC	0.218
CAAGTCCG	0.119
GGCGTATA	0.241
ACGTGAAT	-0.0295
ATCTGAAA	-0.146
AAGGGCGC	0.187
TACATCGA	-0.0287
AGACTTTG	-0.203
GACGTGTA	-0.0351
CAGGTATC	-0.161
CCTCGGGA	0.0733
AGAGAACG	-0.0346
CCAGACGC	0.132
GAGCCCGC	0.311
ACCAGGGT	-0.21
GATACCAA	0.0849
AATTGCAA	-0.117
ACCATTCG	-0.047

Sample 3 — method: aptamer microarray, sandwich; molecule type: DNA with 2'F-ANA; medium: in vitro; tested at: 200 nM; with: Cy3 exosite-II aptamer, 400 nM; reading: higher = stronger binding; oligonucleotide: GGTTGGTGTGGTTGG
Target: Prothrombin, mature alpha-thrombin (F2, Homo sapiens, UniProt P00734)
Setting: whole 15-mer aptamer, many near background
Modification	mean fluorescence intensity
2'F-ANA at 2 5 8 9 13 15	57.5 a.u.
2'F-ANA at 1 4 5 6 7 10 12 13 14 15	46.3 a.u.
2'F-ANA at 2 5 6 8 10 11 13 14	53.8 a.u.
2'F-ANA at 3 6 9 13	704 a.u.
2'F-ANA at 3 4 5 6 12 13	107 a.u.
2'F-ANA at 2 3 4 5 8 9 10 12 13 14	49.8 a.u.
2'F-ANA at 1 5 8 14	58.8 a.u.
2'F-ANA at 2 11 12 13 14	242 a.u.
2'F-ANA at 1 2 3 5 7 9 15	62.2 a.u.
2'F-ANA at 1 5 6 8 9 10 12 13 15	48.3 a.u.
2'F-ANA at 2 3 4 5 6 8 9 11 12 15	149 a.u.
2'F-ANA at 2 3 8 13 14 15	452 a.u.
2'F-ANA at 1 3 5 7 13	58.4 a.u.
2'F-ANA at 2 3 6 8 9 11 14	363 a.u.
2'F-ANA at 4 8 9 10 11	74.1 a.u.
2'F-ANA at 2 4 5 6 8 9 10 11	54 a.u.
2'F-ANA at 2 3 4 5 6 9 10 11 13	62.6 a.u.
2'F-ANA at 2 5 7 8 9 10	71.1 a.u.
2'F-ANA at 1 2 3 5 6 7 9 11 12 14	47 a.u.
2'F-ANA at 1 2 5 6 8 9	66.8 a.u.
2'F-ANA at 1 3 4 6 7 8 10 11 15	61.3 a.u.
2'F-ANA at 3 9 11 12	1410 a.u.
2'F-ANA at 2 4 10 12 14 15	68.7 a.u.
2'F-ANA at 2 3 6 7 10 12 14 15	285 a.u.
2'F-ANA at 4 5 8 11	61 a.u.

Sample 4 — method: RNA Bind-n-Seq; molecule type: RNA; medium: in vitro; tested at: not given; baseline: input RNA pool; reading: higher = stronger binding
Target: RING finger protein unkempt homolog, zinc fingers 1-6, GST-SBP tag (UNK, Homo sapiens, UniProt Q9C0B0, residues 30-357)
Chain of UniProt Q9C0B0 (30-357, looked up): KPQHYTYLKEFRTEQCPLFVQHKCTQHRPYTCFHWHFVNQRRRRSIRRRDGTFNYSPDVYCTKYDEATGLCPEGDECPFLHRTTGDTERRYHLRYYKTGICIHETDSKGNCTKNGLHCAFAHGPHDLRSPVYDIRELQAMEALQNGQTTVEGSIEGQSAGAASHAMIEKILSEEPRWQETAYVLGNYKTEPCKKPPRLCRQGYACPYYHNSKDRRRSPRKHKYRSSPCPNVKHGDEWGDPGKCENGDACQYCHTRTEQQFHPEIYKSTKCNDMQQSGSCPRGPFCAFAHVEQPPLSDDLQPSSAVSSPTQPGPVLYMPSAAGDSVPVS
Setting: RNA with constant flanks, human and mouse sites, ends assumed
Constant ends, left off below: GGGAGUUCUACAGUCCGACGAUC … CAACAGAGGAUUGAGCAUCA
Oligonucleotide	bound/input enrichment
UUACAAAGGACAAUCUUGGGUGGAAUUGCGUUUGUUGCCAUAAAAGGAGCAUUUAAAGUUUACUUCAAACAGCAGCAAUAUUUACGACAGGCACACCGCAAAAUUCUGAAUUAUCCAGAA	0.166 ratio
GGAAAUCUAGACCUCCAAGUGUAUGCAGCAGAGUCUCCUCCAUCUUGAAACAAACAAAACAUUAGGCUCCUGUUGUAUCUUGGUUUAGUAACAGGCCCUUAAUUAACUUAUUUGUACAUG	0.264 ratio
GCUUUUUACCUUCUAGCGUUUUUUUACUACCUAUACGGCAUGAUCUAUGUUCUGGUGAGCUCUUAGAACAACACAGAAGAAUCGGUCCAGUUAAGUGCAUGCAAAACGCCACCAAUGAAG	0.453 ratio
GAUGUCUGCGUGUUUGCAGCCCAAGAAGAUCUAGAGACCAUGCAAGCAUUUGCUCAGGUUUUUAACAAGUUAAUCAGGCGCUACAAAUACCUGGAGAAAGGUUUUGAAGAUGAAGUAAAA	0.146 ratio
GUAAUCAGCAGAGACAUUGAUACUGCUGCCAAAUUCAUUGGUGCAGGUGCUGCAACAGUAGGAGUUGCUGGUUCUGGUGCUGGUAUUGGAACAGUCUUUGGCAGUCUUAUCAUUGGUUAU	0.215 ratio
UGGUCCUCGGUUGCUCGUCAUGCAAGUGCUAUUUCCCGGAGUAUUUCUGCCUCAACAGUUCUUAGGCCUGUUGCUUCUAGAAGAACCUGUUUGACAGACAUACUGUGGUCUGCCUCUGCC	0.173 ratio
GGACGAGAGCCUCUUACUUACUAUGACAUGAAUCUCUCUGCCCAAGACCACCAGACAUUCUUUACUUGUGACUCGGACCAUCUGCGUCCCGCAGAUGCAAUAAUGCAGAAAGCCUGGAGA	0.314 ratio
ACUAGUUAUUUAACAUUAUGCAAUGAAUAUGGGCAAGAAAAGAUUGAACCAGGGUCUUUGAAUGAGGAGCCCUUCAUGAAGACUGAAGGGAAUGGUGUUGAUACAAAAGCUAUUAAAAGC	6.14 ratio
UCAUUGCCCUCAACAUGAAGACUGCCAUAUUCCAAGUCACAUCAUUUUACCAAUGGAGUUAUAGAAUUAACAGUAUUUUCAAUUACGUUUAUAACACUGCAGAGACCUUAAGUGCUAAAC	0.363 ratio
ACUAAAAUGUAGAUGACUUAACUGCCUCCUCCUUCGUCUGAAAAAUGCCAAUAUUCAAUCAUCAUGCAGCAUUAUAACAAGCCUUAUAAGUCCUAAAGCAUUAAGUUGCACUUUUUUGAG	0.189 ratio
CUAACUUUUUGAGUUCACAAUUUACUUGGUCCAGAGUUUUCUAUUCUUUUUUUUUUUUAAACUAAUGAAUGACAUUUAGAUACUUCAUAAAAUUAUGAACAGAUAUGGAGGCCAGAGCUC	0.64 ratio

Excerpt of the above (sample 4):
Oligonucleotide	bound/input enrichment
UUACAAAGGACAAUCUUGGGUGGAAUUGCGUUUGUUGCCAUAAAAGGAGCAUUUAAAGUUUACUUCAAACAGCAGCAAUAUUUACGACAGGCACACCGCAAAAUUCUGAAUUAUCCAGAA	0.166 ratio
GGAAAUCUAGACCUCCAAGUGUAUGCAGCAGAGUCUCCUCCAUCUUGAAACAAACAAAACAUUAGGCUCCUGUUGUAUCUUGGUUUAGUAACAGGCCCUUAAUUAACUUAUUUGUACAUG	0.264 ratio
GCUUUUUACCUUCUAGCGUUUUUUUACUACCUAUACGGCAUGAUCUAUGUUCUGGUGAGCUCUUAGAACAACACAGAAGAAUCGGUCCAGUUAAGUGCAUGCAAAACGCCACCAAUGAAG	0.453 ratio
GAUGUCUGCGUGUUUGCAGCCCAAGAAGAUCUAGAGACCAUGCAAGCAUUUGCUCAGGUUUUUAACAAGUUAAUCAGGCGCUACAAAUACCUGGAGAAAGGUUUUGAAGAUGAAGUAAAA	0.146 ratio
GUAAUCAGCAGAGACAUUGAUACUGCUGCCAAAUUCAUUGGUGCAGGUGCUGCAACAGUAGGAGUUGCUGGUUCUGGUGCUGGUAUUGGAACAGUCUUUGGCAGUCUUAUCAUUGGUUAU	0.215 ratio
UGGUCCUCGGUUGCUCGUCAUGCAAGUGCUAUUUCCCGGAGUAUUUCUGCCUCAACAGUUCUUAGGCCUGUUGCUUCUAGAAGAACCUGUUUGACAGACAUACUGUGGUCUGCCUCUGCC	0.173 ratio
GGACGAGAGCCUCUUACUUACUAUGACAUGAAUCUCUCUGCCCAAGACCACCAGACAUUCUUUACUUGUGACUCGGACCAUCUGCGUCCCGCAGAUGCAAUAAUGCAGAAAGCCUGGAGA	0.314 ratio
ACUAGUUAUUUAACAUUAUGCAAUGAAUAUGGGCAAGAAAAGAUUGAACCAGGGUCUUUGAAUGAGGAGCCCUUCAUGAAGACUGAAGGGAAUGGUGUUGAUACAAAAGCUAUUAAAAGC	6.14 ratio
UCAUUGCCCUCAACAUGAAGACUGCCAUAUUCCAAGUCACAUCAUUUUACCAAUGGAGUUAUAGAAUUAACAGUAUUUUCAAUUACGUUUAUAACACUGCAGAGACCUUAAGUGCUAAAC	0.363 ratio
ACUAAAAUGUAGAUGACUUAACUGCCUCCUCCUUCGUCUGAAAAAUGCCAAUAUUCAAUCAUCAUGCAGCAUUAUAACAAGCCUUAUAAGUCCUAAAGCAUUAAGUUGCACUUUUUUGAG	0.189 ratio
CUAACUUUUUGAGUUCACAAUUUACUUGGUCCAGAGUUUUCUAUUCUUUUUUUUUUUUAAACUAAUGAAUGACAUUUAGAUACUUCAUAAAAUUAUGAACAGAUAUGGAGGCCAGAGCUC	0.64 ratio
